Results gathered from unrelated publications.
A part holds a random share of what one study measured. Changes are numbered by the printed parent chain.

Series 1 — technique: RNA Bind-n-Seq; molecule type: RNA; medium: in vitro; concentration: 365 nM; reference: no-protein control; reading: higher = stronger binding; quantity: RBNS enrichment (R)
Target: RNA binding protein fox-1 homolog 2, RRM domain, GST-SBP tag (RBFOX2, Homo sapiens, UniProt O43251-10, residues 100-194)
Setting: natural RNA segment, single round, ends assumed
All sequences stand within: GGGAGUUCUACAGUCCGACGAUC … UGGAAUUCUCGGGUGCCAA
Residues (chain): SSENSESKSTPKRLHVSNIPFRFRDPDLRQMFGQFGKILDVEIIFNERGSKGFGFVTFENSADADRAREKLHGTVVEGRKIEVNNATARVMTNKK
UUGGGAAGGCUUUGCGUCCUGCCUGCAGACUUGCUAGAGCUGUGGUGAUUAACCCUGGCUGUUGAAUCACUCCACUGACCAGUCUCCAGCUUGAGUCGGGGACAUGUUAA: 0.427
AGUACAGUCAACCUAUCAGAGAGACAAGGGUGAUGCCCCGGUGAGUGUGUCUCAGCUGUGUUUAUGAAUUUGUUUGGUUCACACAUAUCUGAGUGGUAUGGAUAACUGGG: 1.51
UGCCGCCAAUGGGCAGUGCCCUCAGGCCGAAGCCUCAAUCCCCCAUCUGAGCCAGGCCUAAUCCUCUAAUAGUGAUGGUUGGUUUGUCCUCCCAUAACUGCAGGUGGAUU: 0.159
UAAGAUGGCACCAGCAUCACUUUCCGUGUAGAGGCUGCUUUUCUUGGAGUUCAUGUGAAGGAAUGUCUUUUUAAAUAAUGCUACUCUGAUGCCAUAAUUUUCUAUGGCUC: 0.268
UGGCAGUGGGUUGGAAGAUUUCUACUGGGUCACAUGAUGUCUGGUAAUGCCAUCUUGAACUCCCUGUAAUAGUUGGAGACUGCACUUCCUGUCCCUAAAGGAAUGUGCGU: 0.7
AUUCCGUGCCUCUGGGCCAAGAGGUCAGCUUUCUGCACGAGGAGAAAAACAGUAACUGCUGUUUGUUACAGCCUGAAAUCCAGGACGACCGCAUUUUCUCUUGGUUUCUA: 14.2
CUGCCUCUCCUUCCUCUCUGCAGCCCAAAUGGAAAACAAUUAUUUACUCCAUUGGAGGGAAAGGAAGAGUCUUAGAAUUCCUAAGGGAACCUUAGCAUAAAGGUUUUGGG: 0.575
CUUCAGCAACAGCAAAGUGCUACGUAAAUGUAAAGUGUUGUUUUUAGCUAAUAAUGGAUUUAAGUGUUUGGAUAAUUGUAGAUGCAUUUACUUUGAUAAAGCGUGUGCUU: 2.05

Series 2 — technique: protein-binding microarray; molecule type: double-stranded DNA, one strand shown; medium: in vitro; concentration: 250 nM; setting: 60-bp whole probe; with: salmon DNA 0.4 mg/ml; reference: random background probes; reading: higher = stronger binding; quantity: log fluorescence; all sequences stand within: GCCTAGCAC … GTCTTGATTCGCTTGACGCTGCTG
Target: Interferon regulatory factor 7, full length, phosphomimetic (IRF7, Homo sapiens, UniProt Q92985, residues 1-503, S101K/S471D/S472D/S475D/S476D/S477D/S483D/S484D/S487D)
Residues (chain): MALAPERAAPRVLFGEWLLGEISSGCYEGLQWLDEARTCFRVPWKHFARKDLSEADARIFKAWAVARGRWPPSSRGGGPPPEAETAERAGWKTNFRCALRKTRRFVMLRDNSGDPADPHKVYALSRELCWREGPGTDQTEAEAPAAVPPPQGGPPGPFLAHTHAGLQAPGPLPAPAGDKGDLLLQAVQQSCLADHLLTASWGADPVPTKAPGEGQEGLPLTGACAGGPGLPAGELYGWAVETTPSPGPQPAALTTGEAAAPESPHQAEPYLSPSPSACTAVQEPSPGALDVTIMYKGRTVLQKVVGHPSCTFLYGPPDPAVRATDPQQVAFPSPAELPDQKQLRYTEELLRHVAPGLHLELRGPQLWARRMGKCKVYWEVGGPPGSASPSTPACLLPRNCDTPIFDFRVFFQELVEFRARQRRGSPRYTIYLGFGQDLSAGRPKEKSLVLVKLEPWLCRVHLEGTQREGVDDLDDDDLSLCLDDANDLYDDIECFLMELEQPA
TTAGATATCGCGACTGGATTAGTGCTA: 0.0878 z-score
TCATTTCAGTTTCTCTTACTGTGCTAG: 2.78 z-score
TTAGGGCTGGGACTGGGTTAGTGCTAG: -0.458 z-score
TCAGCCCTCGGTTTACAACTGTGCTAG: 0.113 z-score
GCCGGTATCCTTCTCCTGACGTGCTAG: 0.238 z-score
TCAATTATAACACTCTTACTGTGCTAG: 0.461 z-score
GACGGTTCCCTTTTCCTGAAGTGCTAG: 2.99 z-score
TCACATTTTCGTTTTTAACTGTGCTAG: 7.25 z-score
GACGATTTCGGGACTGGTGACGTGCTA: -0.0146 z-score
CACTCTCTACATGTGTTTACGTGCTAG: 0.699 z-score
GACCGTTTCGACTATCGGGACGTGCTA: 3.7 z-score
GACGATATCCTTTTCCTGACGTGCTAG: 0.805 z-score
TCAAATTTCCCTCTCCCACTGTGCTAG: 0.705 z-score
TTAGATTTCCTTCTCCTTTAGTGCTAG: 0.945 z-score
TTAGATTTCGGGTATCTATTAGTGCTA: 1.34 z-score
GACGTTCTCAGTCTCGAGACGTGCTAG: 1.11 z-score
TTAGGTTTCGGTTTCGGTTTGTGCTAG: 15.7 z-score
TCAATTTTGTTCATCATACTGTGCTAG: 0.346 z-score
TCATCATTTTTTTTCATACTGTGCTAG: 0.93 z-score

Series 3 — target: CCND3, cyclin fold, Cln2 fusion (human); technique: yeast growth competition, sequencing; medium: yeast; setting: weak parent motif; reference: not given; reading: higher = stronger binding; quantity: normalised enrichment score
Starting sequence: BORA docking peptide (human); SSLRRKLFLDGNG
R5K: 0.536
R5K L9F: 0.662
L9A: -0.0255
R5A L7A: -0.0202
D10A: 0.0936
F8A: 0.18
K6A: 0.202
G11A: 0.174
R5K F8L: 0.175
R5A: 0.0832
S1A: 0.0949

Series 4 — technique: RNA Bind-n-Seq; molecule type: RNA; medium: in vitro; concentration: 1 µM; setting: whole 134-nt RNA, ends assumed; with: 150 mM KCl; reference: input library; reading: higher = stronger binding; quantity: log2 enrichment
Target: Ras GTPase-activating protein-binding protein 1, RRM domain (G3BP1, Homo sapiens, UniProt Q13283)
Sequence of UniProt Q13283 (whole entry, looked up): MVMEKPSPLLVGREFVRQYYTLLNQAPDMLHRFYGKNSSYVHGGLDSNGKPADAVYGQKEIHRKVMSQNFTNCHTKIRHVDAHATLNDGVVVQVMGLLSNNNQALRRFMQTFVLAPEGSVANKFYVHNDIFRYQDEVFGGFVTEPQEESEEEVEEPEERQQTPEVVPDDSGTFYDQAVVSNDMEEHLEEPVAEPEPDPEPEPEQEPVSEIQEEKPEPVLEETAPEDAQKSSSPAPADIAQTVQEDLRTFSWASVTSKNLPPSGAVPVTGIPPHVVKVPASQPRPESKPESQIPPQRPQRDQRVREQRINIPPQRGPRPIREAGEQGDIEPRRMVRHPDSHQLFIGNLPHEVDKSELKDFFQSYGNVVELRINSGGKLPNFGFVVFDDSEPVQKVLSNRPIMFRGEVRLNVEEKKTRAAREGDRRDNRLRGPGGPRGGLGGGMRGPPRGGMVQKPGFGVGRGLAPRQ
All sequences stand within: GGGAGUUCUACAGUCCGACGAUC … UGGAAUUCUCGGGUGUCAAGG
AGUCCUGUGCUACACAUCGUAUGUACCGAAUCGGUUUUUGGGUUUUUGGGUUUUUGGGAAAGUAUUAUGUUACGCCGUUCGGAUCUGCAC: -0.0803
CCUCAAGUCCUGUGCUACACAUCGUAUGUACCGAAUCGUGUGUGUGUGUGUGUAAAGUAUUAUGUUACGCCGUUCGGAUCUGCACUUCCA: -0.0925
UGGCCCUGGUGGCAUGCGGGGAGGAAGAGGUGGCCUCAUGGAUCGUGGUGGUCCCGGUGGAAUGUUCAGAGGUGGCCGUGGUGGAGACAG: 1.1
UGGGAGGUGGAUUUUGUUUAUUUUUUUAGCUCAUUUCCAGGGGUGGGAAUUUUUUUUUAAUAUGUGUCAAGAAUAAAGUUGUUUUUGAAA: 1.13
CCUCAAGUCCUGUGCUACACAUCGUAUGUACCGAAUCGGGGUGGUGGUGGGGAAAGUAUUAUGUUACGCCGUUCGGAUCUGCACUUCCAG: -0.301
UCCCUAUUCCAGUCAUACACGUGGACCUAACUGCACCAGUAGCUUUUCUGAGAAUACUUGCUGAAAAGGAAGUUUUCUGGAAUGGGUAAG: -0.128
CUGUGCUACACAUCGUAUGUACCGAAUCGGGGUUUUUUGGGGUUUUUUGGGGUUUUUUGGGGAAAGUAUUAUGUUACGCCGUUCGGAUCU: 0.705
ACCAUGCAGGUGGGCAUCUAAAGGAAGUGGGGCAAGGGGGGGAUAGGGAGGGGGGUAACACUUUGGGAACAGGUGGUCCCAGGUCGUUUC: -0.464
CACAGACAACACGCACCCACACAGACACAGAGGGAAGGGGAUGGGAUGGGGACAGGGUGCACAGCAGGGCGGGGUAGGACCCCAGCCCCU: -0.0248

For quick reference, copied from above (series 2):
TTAGATTTCGGGTATCTATTAGTGCTA: 1.34 z-score
GACGTTCTCAGTCTCGAGACGTGCTAG: 1.11 z-score
TTAGGTTTCGGTTTCGGTTTGTGCTAG: 15.7 z-score
